# Measured values collected from several papers.
# Lines come from different studies, so protocols differ. ± marks the error that the study gave. Square brackets hold non-standard residues; d marks the D form. Where no end group is shown, it is not given here. Ends that are not written are not given here. No end group written: not given here. [ ]: non-standard residue; d: D form.
# T1: NR1I2/RXRA (Homo sapiens); chain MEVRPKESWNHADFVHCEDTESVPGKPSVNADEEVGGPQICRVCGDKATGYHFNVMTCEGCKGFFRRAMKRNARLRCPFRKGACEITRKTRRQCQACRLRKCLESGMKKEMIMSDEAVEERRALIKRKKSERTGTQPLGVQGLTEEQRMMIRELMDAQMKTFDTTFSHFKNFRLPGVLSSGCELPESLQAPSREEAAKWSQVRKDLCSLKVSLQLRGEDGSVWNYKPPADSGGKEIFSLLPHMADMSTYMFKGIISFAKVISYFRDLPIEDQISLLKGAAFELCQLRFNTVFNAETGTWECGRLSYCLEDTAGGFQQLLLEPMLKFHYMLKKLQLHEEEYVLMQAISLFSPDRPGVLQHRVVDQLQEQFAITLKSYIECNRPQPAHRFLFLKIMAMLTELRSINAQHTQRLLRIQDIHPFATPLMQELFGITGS; chain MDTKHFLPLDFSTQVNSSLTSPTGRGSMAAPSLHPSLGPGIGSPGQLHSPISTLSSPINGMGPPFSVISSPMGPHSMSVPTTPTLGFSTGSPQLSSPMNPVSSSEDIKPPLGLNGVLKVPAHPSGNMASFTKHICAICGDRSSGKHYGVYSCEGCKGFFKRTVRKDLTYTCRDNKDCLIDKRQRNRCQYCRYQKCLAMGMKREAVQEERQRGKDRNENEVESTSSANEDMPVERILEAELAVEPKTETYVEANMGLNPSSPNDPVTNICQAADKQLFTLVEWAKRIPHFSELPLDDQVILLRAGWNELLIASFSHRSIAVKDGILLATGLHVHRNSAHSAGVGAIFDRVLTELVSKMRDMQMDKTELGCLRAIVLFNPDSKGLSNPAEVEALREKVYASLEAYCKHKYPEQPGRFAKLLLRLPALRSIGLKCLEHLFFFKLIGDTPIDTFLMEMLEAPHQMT
# B1: DIS3 (Saccharomyces cerevisiae, UniProt Q08162); sequence looked up; chain MSVPAIAPRRKRLADGLSVTQKVFVRSRNGGATKIVREHYLRSDIPCLSRSCTKCPQIVVPDAQNELPKFILSDSPLELSAPIGKHYVVLDTNVVLQAIDLLENPNCFFDVIVPQIVLDEVRNKSYPVYTRLRTLCRDSDDHKRFIVFHNEFSEHTFVERLPNETINDRNDRAIRKTCQWYSEHLKPYDINVVLVTNDRLNREAATKEVESNIITKSLVQYIELLPNADDIRDSIPQMDSFDKDLERDTFSDFTFPEYYSTARVMGGLKNGVLYQGNIQISEYNFLEGSVSLPRFSKPVLIVGQKNLNRAFNGDQVIVELLPQSEWKAPSSIVLDSEHFDVNDNPDIEAGDDDDNNESSSNTTVISDKQRRLLAKDAMIAQRSKKIQPTAKVVYIQRRSWRQYVGQLAPSSVDPQSSSTQNVFVILMDKCLPKVRIRTRRAAELLDKRIVISIDSWPTTHKYPLGHFVRDLGTIESAQAETEALLLEHDVEYRPFSKKVLECLPAEGHDWKAPTKLDDPEAVSKDPLLTKRKDLRDKLICSIDPPGCVDIDDALHAKKLPNGNWEVGVHIADVTHFVKPGTALDAEGAARGTSVYLVDKRIDMLPMLLGTDLCSLKPYVDRFAFSVIWELDDSANIVNVNFMKSVIRSREAFSYEQAQLRIDDKTQNDELTMGMRALLKLSVKLKQKRLEAGALNLASPEVKVHMDSETSDPNEVEIKKLLATNSLVEEFMLLANISVARKIYDAFPQTAMLRRHAAPPSTNFEILNEMLNTRKNMSISLESSKALADSLDRCVDPEDPYFNTLVRIMSTRCMMAAQYFYSGAYSYPDFRHYGLAVDIYTHFTSPIRRYCDVVAHRQLAGAIGYEPLSLTHRDKNKMDMICRNINRKHRNAQFAGRASIEYYVGQVMRNNESTETGYVIKVFNNGIVVLVPKFGVEGLIRLDNLTEDPNSAAFDEVEYKLTFVPTNSDKPRDVYVFDKVEVQVRSVMDPITSKRKAELLLK
# B2: UGT1A9 (Homo sapiens, UniProt O60656); chain GKLLVVPMDGSHWFTMRSVVEKLILRGHEVVVVMPEVSWQLGRSLNCTVKTYSTSYTLEDLDREFKAFAHAQWKAQVRSIYSLLMGSYNDIFDLFFSNCRSLFKDKKLVEYLKESSFDAVFLDPFDNCGLIVAKYFSLPSVVFARGILCHYLEEGAQCPAPLSYVPRILLGFSDAMTFKERVRNHIMHLEEHLLCHRFFKNALEIASEILQTPVTEYDLYSHTSIWLLRTDFVLDYPKPVMPNMIFIGGINCHQGKPLPMEFEAYINASGEHGIVVFSLGSMVSEIPEKKAMAIADALGKIPQTVLWRYTGTRPSNLANNTILVKWLPQNDLLGHPMTRAFITHAGSHGVYESICNGVPMVMMPLFGDQMDNAKRMETKGAGVTLNVLEMTSEDLENALKAVINDKSYKENIMRLSSLHKDRPVEPLDLAVFWVEFVMRHKGAPHLRPAAHDLTWYQYHSLDVIGFLLAVVLTVAFITFKCCAYGYRKCLGKKGRVKKAHKSKTH
# B3: TNNC2 (Gallus gallus, UniProt P02588); sequence looked up; chain MASMTDQQAEARAFLSEEMIAEFKAAFDMFDADGGGDISTKELGTVMRMLGQNPTKEELDAIIEEVDEDGSGTIDFEEFLVMMVRQMKEDAKGKSEEELANCFRIFDKNADGFIDIEELGEILRATGEHVTEEDIEDLMKDSDKNNDGRIDFDEFLKMMEGVQ
# B4: SERK3 ectodomain 26-225 F144A (Arabidopsis thaliana, UniProt Q94F62); sequence looked up; chain NAEGDALSALKNSLADPNKVLQSWDATLVTPCTWFHVTCNSDNSVTRVDLGNANLSGQLVMQLGQLPNLQYLELYSNNITGTIPEQLGNLTELVSLDLYLNNLSGPIPSTLGRLKKLRALRLNNNSLSGEIPRSLTAVLTLQVLDLSNNPLTGDIPVNGSFSLFTPISFANTKLTPLPASPPPPISPTPPSPAGSNRITG
# B5: ATG10 1-167 C26S/C137S (Saccharomyces cerevisiae, UniProt Q07879); Cys133 BMOE-reacted; chain MIPYQEWHSQLQSLYDSQIFHNWALSQDVHLNDEKDGLLLRLIPTRQLQKNTERIENKLLNHIELYLTYSKVYNEPLLLLRIWEEKSIDGIPMTKLMLPTDIESLLDVQGKFQLGLDTIINLEGSVWYSFHPCDTSSIVGDQAEFMSTYLRRWVSIFIFSWLGYEDS
# B6: BNI5 (Saccharomyces cerevisiae, UniProt P53890); sequence looked up; chain MGLDQDKIKKRLSQIEIDINQMNQMIDENLQLVEPAEDEAVEDNVKDTGVVDAVKVAETALFSGNDGADSNPGDSAQVEEHKTAQVHIPTENEANKSTDDPSQLSVTQPFIAKEQITHTAIAIGDSYNSFVANSAGNEKAKDSCTENKEDGTVNIDQNRGEADVEIIENNDDEWEDEKSDVEEGRVDKGTEENSEIESFKSPMPQNNTLGGENKLDAELVLDKFSSANKDLDIQPQTIVVGGDNEYNHESSRLADQTPHDDNSENCPNRSGGSTPLDSQTKIFIPKKNSKEDGTNINHFNSDGDGQKKMANFETRRPTNPFRVISVSSNSNSRNGSRKSSLNKYDSPVSSPITSASELGSIAKLEKRHDYLSMKCIKLQKEIDYLNKMNAQGSLSMEDGKRLHRAVVKLQEYLDKKTKEKYEVGVLLSRHLRKQIDRGENGQFWIGTK
# Sequence of UniProt P38862 (whole entry, unmodified, looked up): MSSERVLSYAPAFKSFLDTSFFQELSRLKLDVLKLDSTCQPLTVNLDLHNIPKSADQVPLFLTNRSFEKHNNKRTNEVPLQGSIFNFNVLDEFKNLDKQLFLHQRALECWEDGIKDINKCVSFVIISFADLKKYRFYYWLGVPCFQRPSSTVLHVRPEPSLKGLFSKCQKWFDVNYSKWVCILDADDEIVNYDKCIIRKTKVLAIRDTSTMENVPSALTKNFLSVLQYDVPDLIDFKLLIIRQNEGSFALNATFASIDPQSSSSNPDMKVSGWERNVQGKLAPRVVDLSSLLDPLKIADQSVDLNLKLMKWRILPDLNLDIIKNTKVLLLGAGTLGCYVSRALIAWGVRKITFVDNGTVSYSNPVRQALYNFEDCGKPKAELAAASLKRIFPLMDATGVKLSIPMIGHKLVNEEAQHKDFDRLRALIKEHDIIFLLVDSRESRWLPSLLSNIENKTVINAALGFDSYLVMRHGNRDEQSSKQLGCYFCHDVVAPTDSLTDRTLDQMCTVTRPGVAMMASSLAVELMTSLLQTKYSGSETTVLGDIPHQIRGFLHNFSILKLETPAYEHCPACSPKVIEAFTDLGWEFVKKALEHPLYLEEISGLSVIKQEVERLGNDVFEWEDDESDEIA
# Sequence of UniProt P40368 (whole entry, unmodified, looked up): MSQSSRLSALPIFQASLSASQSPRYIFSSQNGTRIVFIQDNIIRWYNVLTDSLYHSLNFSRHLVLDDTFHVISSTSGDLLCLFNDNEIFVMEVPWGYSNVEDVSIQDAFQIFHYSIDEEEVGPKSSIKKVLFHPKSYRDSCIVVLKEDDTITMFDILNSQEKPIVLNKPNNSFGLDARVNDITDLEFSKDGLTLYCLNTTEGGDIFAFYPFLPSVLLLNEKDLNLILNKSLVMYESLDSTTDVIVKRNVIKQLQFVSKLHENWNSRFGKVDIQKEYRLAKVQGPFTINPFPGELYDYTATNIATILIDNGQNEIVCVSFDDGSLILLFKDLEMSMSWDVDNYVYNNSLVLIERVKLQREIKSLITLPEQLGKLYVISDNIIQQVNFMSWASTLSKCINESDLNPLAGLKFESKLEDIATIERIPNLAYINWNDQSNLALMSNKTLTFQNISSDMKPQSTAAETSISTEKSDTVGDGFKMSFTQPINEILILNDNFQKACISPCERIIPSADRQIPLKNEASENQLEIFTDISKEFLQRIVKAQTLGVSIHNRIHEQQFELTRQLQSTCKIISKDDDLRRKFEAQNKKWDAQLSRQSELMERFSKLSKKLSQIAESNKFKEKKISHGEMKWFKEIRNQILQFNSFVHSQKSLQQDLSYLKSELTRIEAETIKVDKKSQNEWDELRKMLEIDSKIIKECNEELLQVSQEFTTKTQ
# Sequence of UniProt Q02410 (whole entry, unmodified, looked up): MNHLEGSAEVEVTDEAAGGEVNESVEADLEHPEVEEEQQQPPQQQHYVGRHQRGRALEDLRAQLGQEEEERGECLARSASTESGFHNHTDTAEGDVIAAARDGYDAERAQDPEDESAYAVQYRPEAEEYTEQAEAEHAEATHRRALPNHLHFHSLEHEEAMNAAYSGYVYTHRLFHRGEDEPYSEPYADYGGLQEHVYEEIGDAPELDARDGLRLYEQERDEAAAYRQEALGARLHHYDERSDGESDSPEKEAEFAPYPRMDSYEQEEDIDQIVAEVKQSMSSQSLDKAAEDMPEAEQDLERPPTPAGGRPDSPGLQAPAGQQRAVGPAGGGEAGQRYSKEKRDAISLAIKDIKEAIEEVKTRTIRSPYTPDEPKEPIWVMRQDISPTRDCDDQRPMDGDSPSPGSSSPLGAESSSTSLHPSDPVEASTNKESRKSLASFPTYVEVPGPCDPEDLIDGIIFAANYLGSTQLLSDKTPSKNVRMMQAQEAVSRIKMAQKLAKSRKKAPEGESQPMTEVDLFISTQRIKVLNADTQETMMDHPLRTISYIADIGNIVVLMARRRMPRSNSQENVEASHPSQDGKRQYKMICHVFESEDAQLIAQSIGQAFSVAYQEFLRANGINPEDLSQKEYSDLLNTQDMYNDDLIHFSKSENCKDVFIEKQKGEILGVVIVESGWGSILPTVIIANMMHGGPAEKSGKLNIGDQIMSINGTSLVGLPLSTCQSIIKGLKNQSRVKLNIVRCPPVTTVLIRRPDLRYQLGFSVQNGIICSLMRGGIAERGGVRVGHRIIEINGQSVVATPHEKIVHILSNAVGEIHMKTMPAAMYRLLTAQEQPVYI
# Sequence of UniProt P46948 (whole entry, unmodified, looked up): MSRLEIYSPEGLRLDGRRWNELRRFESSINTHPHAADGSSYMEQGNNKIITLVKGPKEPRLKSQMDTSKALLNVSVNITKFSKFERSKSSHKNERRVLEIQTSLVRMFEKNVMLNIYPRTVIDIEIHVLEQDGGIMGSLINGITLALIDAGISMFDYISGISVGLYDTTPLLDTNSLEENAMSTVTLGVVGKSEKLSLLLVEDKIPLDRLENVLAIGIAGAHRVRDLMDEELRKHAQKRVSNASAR
# Sequence of UniProt O55236 (whole entry, unmodified, looked up): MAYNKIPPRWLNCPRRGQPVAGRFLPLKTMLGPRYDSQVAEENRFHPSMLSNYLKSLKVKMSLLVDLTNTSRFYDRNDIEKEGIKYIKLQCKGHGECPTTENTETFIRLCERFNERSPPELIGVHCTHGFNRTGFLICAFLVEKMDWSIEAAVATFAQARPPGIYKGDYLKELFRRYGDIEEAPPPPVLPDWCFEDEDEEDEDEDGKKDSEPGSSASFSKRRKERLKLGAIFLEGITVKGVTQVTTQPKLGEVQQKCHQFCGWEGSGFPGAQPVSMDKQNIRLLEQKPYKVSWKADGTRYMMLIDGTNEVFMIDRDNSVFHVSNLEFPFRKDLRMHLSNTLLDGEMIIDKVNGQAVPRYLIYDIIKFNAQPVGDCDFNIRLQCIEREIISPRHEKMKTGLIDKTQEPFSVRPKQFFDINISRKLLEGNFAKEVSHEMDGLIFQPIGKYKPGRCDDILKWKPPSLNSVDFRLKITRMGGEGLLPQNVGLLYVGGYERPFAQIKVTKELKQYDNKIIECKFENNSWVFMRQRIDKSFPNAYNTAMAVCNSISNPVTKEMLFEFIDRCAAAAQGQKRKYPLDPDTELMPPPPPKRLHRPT
# Sequence of UniProt P48787 (whole entry, unmodified, looked up): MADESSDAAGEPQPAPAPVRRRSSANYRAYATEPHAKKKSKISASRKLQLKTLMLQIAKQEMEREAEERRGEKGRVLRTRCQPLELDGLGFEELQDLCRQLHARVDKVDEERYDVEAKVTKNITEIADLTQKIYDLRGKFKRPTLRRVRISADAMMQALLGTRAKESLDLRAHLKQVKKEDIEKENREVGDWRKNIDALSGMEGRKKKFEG
Molecule,tested on,test,test system,conditions,how to read,endpoint,value
[dA]VIA (D-Ala1),PC-12,"protection from Aβ1–42 toxicity, MTT",,"concentration not given, 6 h, Aβ to peptide ratio 1:1, added: Aβ1–42 2 µM",baseline: untreated cells,cell viability,70%
Insulin human,,,"rat, substantia nigra/VTA","intranasal, 20 µg per nostril, 360 min",,brain concentration,47.6 ± 7 pg/mg tissue
B1 (DIS3),"Exo9 K132E/R206D/W278A (Saccharomyces cerevisiae, UniProt P46948)",reconstitution and purification,,,,binding,binds
TAKCAARFPTWL (designed peptide),APBA1 PDZ-1 648-746 C654S/C742S (UniProt Q02410),ELISA,peptide,1 hour,,binding,binds
B2 (UGT1A9),Oc1ccc(/C=C/c2cc(O)cc(O)c2)cc1,steady-state kinetics,,"pH 7.4, 37 °C",,Vmax/Km,63 µL/min/mg
B3 (TNNC2),"Tnni3 29-192 (Mus musculus, UniProt P48787)",SEC,,,,binding,binds
"GRRYVDMTSAFDFMLN (POL1 1453-1468 I1462A (Saccharomyces cerevisiae, UniProt P13382); sequence looked up)","PRI1/PRI2 PRI1 1-409, PRI2 49-513 del382-384 (Saccharomyces cerevisiae)",pull-down,peptide,"2 h, pH 7.0, 4 °C",,binding,binds
B4 (SERK3 ectodomain 26-225 F144A),"HAESA/IDA HAESA ectodomain; IDA 15-621, hydroxyproline in IDA (Arabidopsis thaliana)",ITC,,"pH 5.0, 25 °C",,binding,binds
[dP]VIA (D-Pro1),PC-12,"protection from Aβ1–42 toxicity, MTT",,"concentration not given, 6 h, Aβ to peptide ratio 1:10, added: Aβ1–42 2 µM",baseline: untreated cells,cell viability,71.2%
"fluorescein-SPT[pS]PSY[pS]PTS (POLR2A CTD peptide consensus heptads, 11-aa; N-fluorescein, pS4, pS8; fluorescein = fluorescein label (fluorescent) on the peptide N-terminus; pS = N[C@@H](COP(=O)(O)O)C(=O)O)","Rngtt 227-567 R330A/K331A (Mus musculus, UniProt O55236)",fluorescence polarisation,peptide,"pH 7.0, 23 °C",,binding,binds
AACTTGCTGACCCTCTGCTTTC (dsDNA),"T1, NR1I2/RXRA (Homo sapiens)",fluorescence anisotropy competition,"double-stranded DNA, one strand shown",added: DR3 FAM,,Ki,144 ± 6 nM
"ASSHLNK(Ac)GIK(Ac)QVYMSLPQ (GLUL 5-22 (Homo sapiens, UniProt P15104); also: biotinylated, place not given here; acetyl K11, acetyl K14; sequence looked up)","CRBN (Homo sapiens, UniProt Q96SW2)",pull-down,peptide,,,binding,binds
B5 (ATG10 1-167 C26S/C137S),"ATG7 1-613 C39S/C195S/C375A, BMOE crosslink to Atg10 (Saccharomyces cerevisiae, UniProt P38862)",X-ray crystallography,,catalytic cysteines crosslinked,,binding,binds
"{SUMO}-SSITKDMKGFKVVEVGLAMNTKKQIGDFFKNLNMAK (NUP159 1425-1460 (Saccharomyces cerevisiae, UniProt P40477); SUMO = SUMO protein tag (N-terminal fusion); sequence looked up)","NUP82 1-452 del172-176/D204A/F290A/Y295A/C396S (Saccharomyces cerevisiae, UniProt P40368)",SEC,,,,binding,binds
B6 (BNI5),Cdc11/Cdc12/Cdc3/Cdc10-GFP hetero-octamer (Saccharomyces cerevisiae),negative-stain EM,,"KCl 45 mM, added: septins 50 nM",,binding,binds

# Excerpt of the above:
Molecule,tested on,test,test system,conditions,how to read,endpoint,value
"GRRYVDMTSAFDFMLN (POL1 1453-1468 I1462A (Saccharomyces cerevisiae, UniProt P13382); sequence looked up)","PRI1/PRI2 PRI1 1-409, PRI2 49-513 del382-384 (Saccharomyces cerevisiae)",pull-down,peptide,"2 h, pH 7.0, 4 °C",,binding,binds
B4 (SERK3 ectodomain 26-225 F144A),"HAESA/IDA HAESA ectodomain; IDA 15-621, hydroxyproline in IDA (Arabidopsis thaliana)",ITC,,"pH 5.0, 25 °C",,binding,binds
